Published values from different studies.
Lines come from different studies, so protocols differ. Values joined by “and” are separate records of one study, mostly repeats; a detail may differ.
Target: Serine/threonine-protein kinase Sgk3 (SGK3, Homo sapiens, UniProt Q96BR1)

`Cc1ccc(C(=O)Nc2ccc(CN3CCN(C)CC3)c(C(F)(F)F)c2)cc1C#Cc1cnc2cccnn12` has an upper asymptote of 62.8 (target engagement, NanoBRET; human cells).
The inhibition of `NC(=O)[C@@H](O)C[C@H]1CCc2sc3ncnc(O[C@H]4CC[C@H](N5CCOCC5)CC4)c3c21` is reported as 1% (enzyme activity, inhibitor; 10 µM).
For `CN1CC[C@@H](COc2cnc(C#N)cc2-c2ccn3nc(NC(=O)C4CC4)cc3c2)C1`, the inhibition was 9% (enzyme activity, inhibitor; 1 µM).
With `COc1ccc(NC(=O)Nc2ccc3c(c2)C(=O)N(C(C)CO)CC(C)C(CN(C)Cc2ccc4c(c2)OCO4)O3)cc1` (centres unmarked) the remaining activity was 97% (kinase activity, KinaseProfiler; 0.03 µM, species human; relative to: control).
`CS(=O)(=O)Nc1cccc(-c2csc3cnc(Nc4ccc(N5CCN(CCCCCOc6cccc7c6C(=O)N(C6CCC(=O)NC6=O)C7=O)CC5)cc4)nc23)c1` (centres unmarked) gave an inhibition of 18.5% (probe labelling, inhibitor, KiNativ chemoproteomics; MOLT-4; 1 µM).
With `CNC1C[S+]2CC[S+]3CC[S+](C1)[Ru-4]321([N]=C=S)[n]2c3ccc(OC)cc3c3c4c(c5cc(F)c[n+]1c5c32)C(=O)NC4=O` (centres unmarked) the remaining binding was 80% (KinomeScan; 0.1 µM; relative to: untreated).
`COCC12C(=O)NC3C4(C(OC)CC1O)C1CC5(O)C(OC)C(O)C(OC(C)=O)(C1C5OC(=O)c1ccccc1)C3(O)C(OC)C24` (centres unmarked) gave a remaining activity of 91% and 96% (kinase activity, inhibitor, ProQinase kinase profiling; 25 µM; relative to: control).
With `Nc1ncc2c(n1)-c1c([nH]c3ccc(C4=CCOCC4)cc13)CCC2` the remaining binding was 100% (binding, competition with immobilised ligand; 1 µM).
The inhibition of `Cc1nc2c(F)cc(-c3nc(Nc4ccc(CNC(=O)CCCCCCC(=O)NO)cc4)ncc3F)cc2n1C(C)C` is reported as 26% (enzyme activity, inhibitor; 1 µM).
For `Cc1cccc(O[C@H]2CCC[C@@H](C(C)CNCc3ccncc3)C2)c1` (relative stereo), the inhibition was -6% (enzyme activity, inhibitor; 1 µM).
For `COc1cc(Nc2nc(C)cc(-c3cnn4nc(OC)ccc34)n2)cc(C(F)(F)F)c1`, the remaining binding was 74% (binding, competition with immobilised ligand; 1 µM).
For `COC(=O)[C@@]1(C)C=C(C(=O)Nc2cccc(C(=O)Nc3ccc(Nc4nccc(-c5cccnc5)n4)c(C)c3)c2)C(=O)CC1`, the remaining activity was 106% (enzyme activity, inhibitor, radiometric; 1 µM).
With `Nc1ncc(-c2cc(-c3cnn(CC(F)(F)F)c3)ncc2F)nc1C(=O)NC1CNCC(F)C1` (centres unmarked) the remaining activity was 91.7% (enzyme activity; 1 µM; relative to: DMSO control).
The inhibition of `CN1CCN(Cc2ccc(-c3ccc(CO[C@H]4CCC[C@@H]4NC(=O)c4cc(-c5cnn(C)c5)cnc4N)cc3)cc2)CC1` is reported as 24% (enzyme activity, inhibitor; 0.1 µM).
With `CC(C)=CC1OC(C)(C)C2C=C3C(=O)C(Cl)=CC(O)C3C3C(O)C4OC4C(=O)C132` (centres unmarked) the remaining binding was 59% (cell-free assay, competition with immobilised ligand; 10 µM).
With `C=CC(=O)Nc1cccc(-c2cnc3[nH]cc(C(=O)NC(C)(C)C)c3n2)c1` the inhibition was 4% (enzyme activity, inhibitor; 0.1 µM).
`C=CC(=O)N1Cc2nc(-c3cc(-c4cc(Cl)cnc4Cl)c(F)cc3F)n(-c3ccncn3)c2C1` gave an inhibition of 4.5% (cell-free assay, inhibitor; 1 µM).

Repeated from above:
`CS(=O)(=O)Nc1cccc(-c2csc3cnc(Nc4ccc(N5CCN(CCCCCOc6cccc7c6C(=O)N(C6CCC(=O)NC6=O)C7=O)CC5)cc4)nc23)c1` (centres unmarked) gave an inhibition of 18.5% (probe labelling, inhibitor, KiNativ chemoproteomics; MOLT-4; 1 µM).
`COCC12C(=O)NC3C4(C(OC)CC1O)C1CC5(O)C(OC)C(O)C(OC(C)=O)(C1C5OC(=O)c1ccccc1)C3(O)C(OC)C24` (centres unmarked) gave a remaining activity of 91% and 96% (kinase activity, inhibitor, ProQinase kinase profiling; 25 µM; relative to: control).
The inhibition of `NC(=O)[C@@H](O)C[C@H]1CCc2sc3ncnc(O[C@H]4CC[C@H](N5CCOCC5)CC4)c3c21` is reported as 1% (enzyme activity, inhibitor; 10 µM).
